# Experimental data gathered from unrelated publications.
# Parts stem from different laboratories: compare values within a part only. Several values in a cell are separate wells, animals, samples, runs or records.
# Chain of UniProt O43293 (whole entry, looked up): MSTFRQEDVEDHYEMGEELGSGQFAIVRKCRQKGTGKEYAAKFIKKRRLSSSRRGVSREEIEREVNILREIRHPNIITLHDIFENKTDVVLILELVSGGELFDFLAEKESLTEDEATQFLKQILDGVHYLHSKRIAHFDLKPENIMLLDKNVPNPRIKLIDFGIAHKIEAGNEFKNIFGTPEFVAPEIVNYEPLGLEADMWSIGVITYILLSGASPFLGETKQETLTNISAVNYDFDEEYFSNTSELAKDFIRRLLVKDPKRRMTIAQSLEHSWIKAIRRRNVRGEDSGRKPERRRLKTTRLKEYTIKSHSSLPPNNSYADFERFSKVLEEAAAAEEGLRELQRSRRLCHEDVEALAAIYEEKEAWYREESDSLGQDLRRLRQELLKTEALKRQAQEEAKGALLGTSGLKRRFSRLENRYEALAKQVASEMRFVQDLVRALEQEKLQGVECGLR
# Chain of UniProt Q14289 (whole entry, looked up): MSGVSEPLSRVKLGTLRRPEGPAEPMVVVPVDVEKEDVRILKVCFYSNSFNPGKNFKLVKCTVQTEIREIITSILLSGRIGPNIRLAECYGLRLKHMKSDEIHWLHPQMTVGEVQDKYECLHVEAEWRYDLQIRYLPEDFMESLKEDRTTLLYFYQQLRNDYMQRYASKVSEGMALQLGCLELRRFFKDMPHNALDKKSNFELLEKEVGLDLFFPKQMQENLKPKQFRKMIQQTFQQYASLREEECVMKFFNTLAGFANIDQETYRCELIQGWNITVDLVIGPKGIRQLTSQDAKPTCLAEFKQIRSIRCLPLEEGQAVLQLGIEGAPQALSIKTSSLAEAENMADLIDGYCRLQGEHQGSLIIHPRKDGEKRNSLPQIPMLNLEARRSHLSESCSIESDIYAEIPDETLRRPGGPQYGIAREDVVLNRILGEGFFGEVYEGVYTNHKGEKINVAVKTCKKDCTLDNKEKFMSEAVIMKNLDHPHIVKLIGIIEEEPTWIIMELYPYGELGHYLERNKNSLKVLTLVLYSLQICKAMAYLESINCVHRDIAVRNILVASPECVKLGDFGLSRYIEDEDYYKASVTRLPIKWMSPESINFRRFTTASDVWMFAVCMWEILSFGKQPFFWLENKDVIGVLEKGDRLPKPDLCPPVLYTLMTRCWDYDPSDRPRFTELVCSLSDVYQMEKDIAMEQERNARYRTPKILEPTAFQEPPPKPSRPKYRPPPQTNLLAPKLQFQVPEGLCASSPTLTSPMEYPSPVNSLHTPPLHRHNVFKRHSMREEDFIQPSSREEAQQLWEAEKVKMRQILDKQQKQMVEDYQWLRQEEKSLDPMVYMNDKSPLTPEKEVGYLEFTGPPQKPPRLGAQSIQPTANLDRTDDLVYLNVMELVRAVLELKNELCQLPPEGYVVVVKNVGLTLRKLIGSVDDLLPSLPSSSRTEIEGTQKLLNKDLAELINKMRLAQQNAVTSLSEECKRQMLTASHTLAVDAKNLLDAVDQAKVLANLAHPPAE
# Chain of UniProt P51617 (whole entry, looked up): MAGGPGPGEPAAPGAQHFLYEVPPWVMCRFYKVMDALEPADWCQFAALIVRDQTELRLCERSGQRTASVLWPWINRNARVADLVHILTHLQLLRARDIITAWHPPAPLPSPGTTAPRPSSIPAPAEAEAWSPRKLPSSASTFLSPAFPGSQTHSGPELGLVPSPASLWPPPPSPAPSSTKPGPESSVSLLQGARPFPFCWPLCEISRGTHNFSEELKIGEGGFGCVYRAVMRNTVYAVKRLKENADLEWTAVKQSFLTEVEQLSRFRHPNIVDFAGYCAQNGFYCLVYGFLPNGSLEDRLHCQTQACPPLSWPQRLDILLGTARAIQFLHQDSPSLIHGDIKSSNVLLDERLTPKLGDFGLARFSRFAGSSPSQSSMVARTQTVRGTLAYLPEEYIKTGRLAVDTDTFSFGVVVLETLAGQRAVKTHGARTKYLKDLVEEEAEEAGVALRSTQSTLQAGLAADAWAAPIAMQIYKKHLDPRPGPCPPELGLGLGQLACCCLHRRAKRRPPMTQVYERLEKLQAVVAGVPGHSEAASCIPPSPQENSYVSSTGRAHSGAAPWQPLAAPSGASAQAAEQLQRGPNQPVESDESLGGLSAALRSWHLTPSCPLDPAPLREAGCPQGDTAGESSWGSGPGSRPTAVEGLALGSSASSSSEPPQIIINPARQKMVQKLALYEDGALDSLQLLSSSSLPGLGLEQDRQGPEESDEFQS
# Chain of UniProt P42684 (whole entry, looked up): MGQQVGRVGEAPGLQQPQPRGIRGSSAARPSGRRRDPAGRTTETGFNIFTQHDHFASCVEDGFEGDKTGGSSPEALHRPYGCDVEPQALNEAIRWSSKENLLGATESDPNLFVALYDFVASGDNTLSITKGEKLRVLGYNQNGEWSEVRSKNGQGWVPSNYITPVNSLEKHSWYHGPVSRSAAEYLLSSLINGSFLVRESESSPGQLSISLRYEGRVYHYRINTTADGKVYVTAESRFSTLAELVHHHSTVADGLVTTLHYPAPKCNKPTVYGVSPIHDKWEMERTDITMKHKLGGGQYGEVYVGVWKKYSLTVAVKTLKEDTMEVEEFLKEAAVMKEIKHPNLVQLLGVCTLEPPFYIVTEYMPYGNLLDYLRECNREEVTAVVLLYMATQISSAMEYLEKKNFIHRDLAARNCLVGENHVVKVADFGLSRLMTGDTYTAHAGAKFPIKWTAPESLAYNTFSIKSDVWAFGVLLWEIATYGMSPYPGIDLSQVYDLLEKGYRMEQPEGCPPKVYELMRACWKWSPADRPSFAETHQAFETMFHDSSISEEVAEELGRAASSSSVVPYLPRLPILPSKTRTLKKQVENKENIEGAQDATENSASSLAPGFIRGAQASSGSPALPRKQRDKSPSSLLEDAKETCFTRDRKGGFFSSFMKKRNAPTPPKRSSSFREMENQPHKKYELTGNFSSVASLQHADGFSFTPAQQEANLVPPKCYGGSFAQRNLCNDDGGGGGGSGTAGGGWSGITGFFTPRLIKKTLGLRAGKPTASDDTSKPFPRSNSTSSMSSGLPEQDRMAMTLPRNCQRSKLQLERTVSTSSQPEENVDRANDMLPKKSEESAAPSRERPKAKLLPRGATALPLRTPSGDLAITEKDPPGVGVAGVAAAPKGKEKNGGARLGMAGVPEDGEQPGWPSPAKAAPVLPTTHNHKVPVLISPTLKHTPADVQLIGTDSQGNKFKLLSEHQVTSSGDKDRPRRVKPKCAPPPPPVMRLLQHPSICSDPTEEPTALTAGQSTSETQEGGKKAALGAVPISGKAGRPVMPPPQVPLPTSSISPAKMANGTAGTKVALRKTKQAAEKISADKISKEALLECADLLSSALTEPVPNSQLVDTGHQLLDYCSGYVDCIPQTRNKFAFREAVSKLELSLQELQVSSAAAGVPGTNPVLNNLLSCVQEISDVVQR
# Chain of UniProt Q86Z02 (whole entry, looked up): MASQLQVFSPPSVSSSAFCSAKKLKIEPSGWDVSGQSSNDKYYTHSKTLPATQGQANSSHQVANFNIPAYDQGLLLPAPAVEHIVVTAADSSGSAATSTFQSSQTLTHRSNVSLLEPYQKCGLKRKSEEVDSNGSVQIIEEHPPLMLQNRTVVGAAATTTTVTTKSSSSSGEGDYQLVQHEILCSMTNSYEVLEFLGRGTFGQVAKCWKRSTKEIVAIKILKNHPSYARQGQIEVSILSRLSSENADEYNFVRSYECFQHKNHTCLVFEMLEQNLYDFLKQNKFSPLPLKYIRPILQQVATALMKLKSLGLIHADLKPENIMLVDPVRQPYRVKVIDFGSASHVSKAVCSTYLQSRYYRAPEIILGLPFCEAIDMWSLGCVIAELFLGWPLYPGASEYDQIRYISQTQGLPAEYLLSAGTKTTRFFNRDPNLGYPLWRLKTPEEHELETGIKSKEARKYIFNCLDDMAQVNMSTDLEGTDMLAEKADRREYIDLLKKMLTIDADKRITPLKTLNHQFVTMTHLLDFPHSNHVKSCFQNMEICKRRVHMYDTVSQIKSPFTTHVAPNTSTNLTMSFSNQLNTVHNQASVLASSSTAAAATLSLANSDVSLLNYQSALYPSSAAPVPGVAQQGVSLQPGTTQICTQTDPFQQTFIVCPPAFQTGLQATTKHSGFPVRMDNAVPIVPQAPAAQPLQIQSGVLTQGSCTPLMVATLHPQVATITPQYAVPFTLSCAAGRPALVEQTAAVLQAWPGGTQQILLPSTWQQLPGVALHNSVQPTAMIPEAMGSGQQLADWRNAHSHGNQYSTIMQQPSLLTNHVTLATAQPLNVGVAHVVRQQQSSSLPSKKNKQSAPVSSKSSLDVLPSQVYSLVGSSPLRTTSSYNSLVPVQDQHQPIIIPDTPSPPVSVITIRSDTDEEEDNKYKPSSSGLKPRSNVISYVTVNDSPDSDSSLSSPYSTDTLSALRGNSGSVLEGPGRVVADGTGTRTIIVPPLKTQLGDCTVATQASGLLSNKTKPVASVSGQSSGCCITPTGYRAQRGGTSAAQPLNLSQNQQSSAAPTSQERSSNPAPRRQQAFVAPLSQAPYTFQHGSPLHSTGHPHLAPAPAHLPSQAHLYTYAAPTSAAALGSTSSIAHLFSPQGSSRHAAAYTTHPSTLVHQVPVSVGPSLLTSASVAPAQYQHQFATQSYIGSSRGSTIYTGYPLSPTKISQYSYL
# Chain of UniProt Q00537 (whole entry, looked up): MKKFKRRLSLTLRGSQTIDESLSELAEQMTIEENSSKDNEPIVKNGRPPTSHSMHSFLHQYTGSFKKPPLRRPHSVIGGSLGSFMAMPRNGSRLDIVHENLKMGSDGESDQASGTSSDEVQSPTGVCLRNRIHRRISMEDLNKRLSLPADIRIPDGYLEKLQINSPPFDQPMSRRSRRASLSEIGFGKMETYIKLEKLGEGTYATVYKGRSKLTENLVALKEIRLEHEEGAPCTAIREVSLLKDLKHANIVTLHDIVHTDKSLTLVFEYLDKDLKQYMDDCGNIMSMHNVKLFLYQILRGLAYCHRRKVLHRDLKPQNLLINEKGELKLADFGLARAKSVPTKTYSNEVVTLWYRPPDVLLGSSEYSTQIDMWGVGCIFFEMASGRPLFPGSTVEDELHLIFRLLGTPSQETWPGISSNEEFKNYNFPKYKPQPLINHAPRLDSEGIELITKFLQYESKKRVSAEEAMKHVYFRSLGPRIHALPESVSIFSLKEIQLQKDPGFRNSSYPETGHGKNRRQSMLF

# Study 1
# Host: human
# Matrix: microsomes or S9
# Tested at: 2 µM
# Time: 0.5 h
Compound,remaining compound
c1ccc(C(Nc2ccc3nccnc3n2)c2ccccc2)cc1,8.45%
Cc1nc(CN2CCN(c3cnc4ccccc4n3)CC2)oc1C,39.4%
Cc1ccc(CNS(=O)(=O)CC2=NC(=O)n3cccc3C2=O)cc1,2.46%
Cc1noc(-c2cccn3c(=O)n(Cc4c(C)noc4C)nc23)n1,62.3%

# Study 2
# SMILES: CC(C)n1cnc(-c2ccc(F)cc2)c1-c1ncc(C(=O)Nc2ccc(N3CCN(C)CC3)cc2)[nH]1
# Method: phase 2a trial
# Host: idiopathic pulmonary fibrosis patients
conditions,patients with dyspnoea
"60 mg once daily, adverse event grade 5",0%
"30 mg once daily, adverse event grade 2",0%
"30 mg once daily, adverse event grade 5",0%

# Study 3
# Compound: CNCc1ccccc1-c1csc([C@H](C)Nc2nc(C)nc3cc(OC)c(OC)cc23)c1
# Effect on: cell-free assay
# Method: competition with immobilised ligand
# Tested at: 1 µM
target,remaining binding [%]
"Cyclin-dependent kinase 17 (CDK17, Homo sapiens, UniProt Q00537)",100
"Bone morphogenetic protein receptor type-2 (BMPR2, Homo sapiens, UniProt Q13873)",100
"Death-associated protein kinase 3 (DAPK3, Homo sapiens, UniProt O43293)",100
"Protein-tyrosine kinase 2-beta (PTK2B, Homo sapiens, UniProt Q14289)",100
"Serine/threonine-protein kinase Sgk2 (SGK2, Homo sapiens, UniProt Q9HBY8)",100
"Tyrosine-protein kinase ABL2 (ABL2, Homo sapiens, UniProt P42684)",100
"Proto-oncogene tyrosine-protein kinase receptor Ret (RET, Homo sapiens, UniProt P07949, V804M)",100
"Receptor-type tyrosine-protein kinase FLT3 (FLT3, Homo sapiens, UniProt P36888)",100
"Casein kinase II subunit alpha' (CSNK2A2, Homo sapiens, UniProt P19784)",100
"Homeodomain-interacting protein kinase 1 (HIPK1, Homo sapiens, UniProt Q86Z02)",79
"Phosphatidylinositol 3-kinase C2 domain-containing subunit gamma (PIK3C2G, Homo sapiens, UniProt O75747)",100
"Serine/threonine-protein kinase 32B (STK32B, Homo sapiens, UniProt Q9NY57)",100
"Interleukin-1 receptor-associated kinase 1 (IRAK1, Homo sapiens, UniProt P51617)",80

# Study 4
# Cell line: mouse MPNST tumor cells
# Method: high-content immunofluorescence imaging
# Item: nuclear SOX9
# Tested at: 10 µM
# Time: 12 h
# Notes: mean of 2 replicates
# Reference: DMSO control
# Direction: higher = more nuclear SOX9
SMILES,nuclear SOX9 intensity
Cc1cc(NCCO)nc(-c2ccc(Br)cc2)n1,97.5 % of DMSO
CCOC(=O)Nc1ccc2c(c1)N(C(=O)CN(CC)CC)c1ccccc1CC2,81.3 % of DMSO
CC(C)(C#N)c1cc(Cn2cncn2)cc(C(C)(C)C#N)c1,92.2 % of DMSO and 94.3 % of DMSO and 96.1 % of DMSO
N=c1nc(N2CCCCC2)cc(N)n1O,93.6 % of DMSO and 90.9 % of DMSO

# Study 5
# Cell line: UACC-903 melanoma
SMILES,IC50
CN(C)CCCN1c2ccccc2Sc2ccccc21,28.6 µM
c1cc(CN2CCCCC2)cc(OCCCNc2nc3ccccc3s2)c1,33.3 µM
CNCCC=C1c2ccccc2CCc2ccccc21,14.9 µM

# Mixed results
Compound,cell line,assay,conditions,quantity,result
c1ccc(Oc2ccc(Nc3c4c(nc5ccccc35)CCC4)cc2)cc1,HepG2,resazurin,"0.0166 µM, 48 h",cytotoxicity,4% and 3%

# Excerpt of the above (study 3):
target,remaining binding [%]
"Phosphatidylinositol 3-kinase C2 domain-containing subunit gamma (PIK3C2G, Homo sapiens, UniProt O75747)",100
"Serine/threonine-protein kinase 32B (STK32B, Homo sapiens, UniProt Q9NY57)",100
"Protein-tyrosine kinase 2-beta (PTK2B, Homo sapiens, UniProt Q14289)",100
"Interleukin-1 receptor-associated kinase 1 (IRAK1, Homo sapiens, UniProt P51617)",80
